Assay results of several laboratories.
Protocols differ between the studies behind these lines.
Organism: Escherichia coli

O=C(Cc1ccccc1)N[C@@H]1C(=O)N2C(C(=O)O)=C(CSc3cccc4cccnc34)C[S+]([O-])[C@H]12 (some centres unmarked)
MIC (25922): > 128 µg/mL

N=C(N)c1ccc(OCc2ccccc2COc2ccc(C(=N)N)cc2)cc1
MIC (552100; compound alone): > 200 µg/mL

CNC(C)C1CCC(N)C(OC2C(N)CC(N)C(OC3OCC(C)(O)C(NC)C3O)C2O)O1 (centres unmarked)
MIC (bacterial growth; ESBL clinical isolate JMI 1043856): 0.5 µg/mL

CC1(C)SC2C(NC(=O)C(NC(=O)C3=C(O)C(Cc4ccsc4)NC3=O)c3ccccc3)C(=O)N2C1C(=O)O (centres unmarked)
MIC (broth microdilution; BW25113 wild type; 18 h): 25 µg/mL

CCCCCCCCCCCCCCCC[N+](C)(C)C
MIC (bacterial growth): ~200 µM

Cc1c(CN(C)C(=O)/C=C/c2cnc3c(c2)CC(NC(=O)OC(C)(C)C)C(=O)N3)oc2ccccc12 (centres unmarked)
MIC (broth microdilution; AR-0541): > 32 µg/mL

Cn1nnc(-c2ccc(-c3ccc(N4C[C@H](CO)OC4=O)cc3F)cn2)n1
MIC (broth microdilution; compound alone): 2.5 µM

CC1(C)S[C@@H]2[C@H](NC(=O)[C@H](N)c3ccccc3)C(=O)N2[C@H]1C(=O)O
MIC (broth microdilution; ATCC 10546): 2 µg/mL

NC[C@H]1O[C@H](O[C@H]2[C@H](O)[C@@H](O[C@H]3O[C@H](CO)[C@@H](O)[C@H](N)[C@H]3O)[C@H](N)C[C@@H]2N)[C@H](O)[C@@H](O)[C@@H]1O
MIC (broth microdilution; ATCC 25922; 16 h, 37 °C, cation-adjusted Mueller-Hinton broth): 4 µg/mL

O=C1CN(/N=C/c2ccc([N+](=O)[O-])o2)C(=O)N1
MIC (broth microdilution; 18 h): 8 µg/mL

CO[C@@H]1[C@@H](O[C@@H]2O[C@H](C)[C@@H](O[C@H]3C[C@@](C)(O)[C@@H](OC(=O)CC(C)C)[C@H](C)O3)[C@H](N(C)C)[C@H]2O)[C@@H](CC=O)C[C@@H](C)[C@@H](O)/C=C/C=C/C[C@@H](C)OC(=O)C[C@H]1OC(C)=O
MIC (ATCC 25922): 640 µM

CN(C)c1ccc(O)c2c1C[C@H]1C[C@H]3[C@H](N(C)C)C(O)=C(C(N)=O)C(=O)[C@@]3(O)C(O)=C1C2=O
MIC (broth microdilution; ATCC 25922; 5% CO2): 0.25 µg/mL

CCC(=O)O[C@@H]1CC(=O)O[C@H](C)C/C=C/C=C/[C@H](O)[C@H](C)C[C@H](CC=O)[C@H](O[C@@H]2O[C@H](C)[C@@H](O[C@H]3C[C@@](C)(O)[C@@H](OC(=O)CC)[C@H](C)O3)[C@H](N(C)C)[C@H]2O)[C@H]1OC
MIC (ATCC 25922): 640 µM

CC1(C)S[C@@H]2[C@H](NC(=O)Cc3ccccc3)C(=O)N2[C@H]1C(=O)O
MIC (broth microdilution; 18 h): 32 µg/mL

CO[C@@H]1[C@@H](OC(N)=O)[C@@H](O)[C@H](Oc2ccc3c(O)c(NC(=O)c4ccc(O)c(CC=C(C)C)c4)c(=O)oc3c2C)OC1(C)C
MIC (ATCC 25922): 160 µM

O=C(N[C@H](CO)[C@H](O)c1ccc([N+](=O)[O-])cc1)C(Cl)Cl
MIC (broth microdilution; ATCC 25922; ambient air): 4 µg/mL

CC(C)Oc1c(NC(=O)c2ccc(N3C(=O)C[C@H](NC(=O)c4ccc(NC(=O)c5ccc(C#N)cc5)cc4)C3=O)cc2)ccc(C(=O)N/N=C/c2ccnn2C)c1O
MIC (BW25113; 18 h, 37 °C, irradiated at 365 nm, photostationary state): 0.34 µg/mL

Cc1c(CN(C)C(=O)/C=C/c2cnc3c(c2)CCC(=O)N3)oc2ccccc12
MIC (broth microdilution; AR-0137): > 32 µg/mL

C[C@H]1COc2c(N3CCN(C)CC3)c(F)cc3c(=O)c(C(=O)O)cn1c23
MIC (agar dilution; 16-1 ESBL): 0.5 µg/mL

CC(C)Oc1c(NC(=O)c2ccc(NC(=O)[C@H](CC(N)=O)NC(=O)c3ccc(NC(=O)c4ccc(C#N)cc4)cc3)cc2)ccc(C(=O)N/N=C/c2ccc(C(=O)O)cc2)c1O
MIC (BW25113; 18 h, 37 °C, irradiated at 365 nm, photostationary state): 0.01 µg/mL

CC[C@H]1OC(=O)[C@H](C)[C@@H](O[C@H]2C[C@@](C)(OC)[C@@H](O)[C@H](C)O2)[C@H](C)[C@@H](O[C@@H]2O[C@H](C)C[C@H](N(C)C)[C@H]2O)[C@](C)(O)C[C@@H](C)CN[C@H](C)[C@@H](O)[C@]1(C)O
MIC (ATCC 25922): 10 µM

CC[C@H](C)[C@H](N)C(=O)N[C@@H](CC(C)C)C(=O)N1CCC[C@H]1C(=O)N[C@@H](Cc1c[nH]c2ccccc12)C(=O)N[C@@H](CCCCN)C(=O)N[C@@H](Cc1c[nH]c2ccccc12)C(=O)N1CCC[C@H]1C(=O)N[C@@H](Cc1c[nH]c2ccccc12)C(=O)N[C@@H](Cc1c[nH]c2ccccc12)C(=O)N1CCC[C@H]1C(=O)N[C@@H](Cc1c[nH]c2ccccc12)C(=O)N[C@@H](CCCNC(=N)N)C(=O)N[C@@H](CCCNC(=N)N)C(=O)O
MIC (broth dilution; K12 BW25113; 18 h, 37 °C): 10.4 µM

CO[C@H]1/C=C/O[C@@]2(C)Oc3c(C)c(O)c4c(O)c(c(/C=N/N5CCN(C)CC5)c(O)c4c3C2=O)NC(=O)/C(C)=C\C=C\[C@H](C)[C@H](O)[C@@H](C)[C@@H](O)[C@@H](C)[C@H](OC(C)=O)[C@@H]1C
MIC (broth microdilution OD600; Mueller-Hinton broth; 24 h, 37 °C, together with: 4 µM FeCl3): 8 µM

COc1c(NC(=O)c2ccc(NC(=O)c3ccc(NC(=O)[C@H](CC#N)NC(=O)c4ccc(NC(=O)/C(C)=C/c5ccc(O)cc5)cc4)cc3)c(OC)c2O)ccc(C(=O)O)c1O
MIC (BW25113 wild type): < 0.03 µg/mL

N=C(N)c1ccc(OCCCCCOc2ccc(C(=N)N)cc2)cc1
MIC (BW25113; compound alone, rifampicin checkerboard): 200 µg/mL

O=C1CN(/N=C/c2ccc([N+](=O)[O-])o2)C(=O)N1
MIC (ATCC 25922): 80 µM

c1ccc(OCCn2c(CNCC34CC5CC(CC(C5)C3)C4)nc3ccccc32)cc1
MIC (ATCC 25922): > 128 µg/mL

N=C(N)c1cccc(OCc2ccccc2COc2cccc(C(=N)N)c2)c1
MIC (BW25113; compound alone, rifampicin checkerboard): > 200 µg/mL

C[C@@H]1O[C@@H]1P(=O)(O)O
MIC (ATCC 25922): 80 µM

C[C@H]1COc2c(N3CCN(C)CC3)c(F)cc3c(=O)c(C(=O)O)cn1c23
MIC (broth microdilution; ATCC 25922; 5% CO2): 0.03 µg/mL

CN(C)c1cc(NC(=O)CNC(C)(C)C)c(O)c2c1C[C@H]1C[C@H]3[C@H](N(C)C)C(O)=C(C(N)=O)C(=O)[C@@]3(O)C(O)=C1C2=O
MIC (broth microdilution; 18 h): 0.5 µg/mL

O=[N+]([O-])c1ccc(O)c2ncccc12
MIC (UAMS-1): 7.8 µM

CO/N=C(\C(=O)N[C@@H]1C(=O)N2C(C(=O)O)=C(CSc3nc(=O)c(O)nn3C)CS[C@H]12)c1csc(N)n1
MIC (broth microdilution; 18 h): 0.0313 µg/mL

CC[C@H](C)CCCCC(=O)N[C@@H](CCN)C(=O)N[C@H](C(=O)N[C@@H](CCN)C(=O)N[C@H]1CCNC(=O)[C@H]([C@@H](C)O)NC(=O)[C@H](CCN)NC(=O)[C@H](CCN)NC(=O)[C@H](CC(C)C)NC(=O)[C@@H](CC(C)C)NC(=O)[C@H](CCN)NC1=O)[C@@H](C)O
MIC (broth microdilution; ATCC 25922; 18 to 20 h): 0.5 µg/mL

C/C(=N/NC(=O)c1cn(-c2ccccc2)nc1-c1ccc(C)cc1)c1c(O)cc(C)oc1=O
MIC (DH5α): 70 µg/mL

CO[C@H]1/C=C/O[C@@]2(C)Oc3c(C)c(O)c4c(O)c(c(/C=N/Nc5c(F)c(F)cc(F)c5F)c(O)c4c3C2=O)NC(=O)/C(C)=C/C=C/[C@H](C)[C@H](O)[C@@H](C)[C@@H](O)[C@@H](C)[C@H](OC(C)=O)[C@H]1C
MIC (ATCC 25922): 20 µM

CNC(C)C1CCC(N)C(OC2C(N)CC(N)C(OC3OCC(C)(O)C(NC)C3O)C2O)O1 (centres unmarked)
MIC (broth microdilution; ATCC 25922; 5% CO2): 2 µg/mL

FC(F)(F)Oc1ccc(OCCn2c(CNCC34CC5CC(CC(C5)C3)C4)nc3ccccc32)cc1
MIC (ATCC 25922): > 128 µg/mL

COC(=O)[C@H]1[C@H]2C[C@@H]3c4[nH]c5cc(OC)ccc5c4CCN3C[C@H]2C[C@@H](OC(=O)c2cc(OC)c(OC)c(OC)c2)[C@@H]1OC
MIC (tetracycline-resistant (pBR322)): > 128 µM

N=C(N)c1ccc(OCc2cccc(COc3ccc(C(=N)N)cc3)c2)cc1
MIC (mcr-3 polymyxin-resistant; compound alone): > 200 µg/mL

C=C/C=C(\C)CC[C@H]1C[C@@H](O)CC(=O)O1
MIC (broth microdilution; KCTC 2571): 128 µg/mL

CC1(C)S[C@@H]2[C@H](NC(=O)[C@H](N)c3ccccc3)C(=O)N2[C@H]1C(=O)O
MIC (ATCC BAA-196, resistant; 18 h, 37 °C, dark): > 128 µM

N=C(N)c1ccc(OCc2ccc(-c3ccccc3)cc2COc2ccc(C(=N)N)cc2)cc1
MIC (mcr-3 polymyxin-resistant; compound alone): > 100 µg/mL

CC(=O)Nc1ccc(/C=N/NC(=O)c2ccc(NC(=O)c3ccc(N4C(=O)C[C@H](NC(=O)c5ccc(NC(=O)c6ccc(C#N)cc6)cc5)C4=O)cc3)c(OC(C)C)c2O)cc1
MIC (BW25113; 18 h, 37 °C, irradiated at 365 nm, photostationary state): 0.1 µg/mL

A few entries again:
O=C(N[C@H](CO)[C@H](O)c1ccc([N+](=O)[O-])cc1)C(Cl)Cl
MIC (broth microdilution; ATCC 25922; ambient air): 4 µg/mL

C/C(=N/NC(=O)c1cn(-c2ccccc2)nc1-c1ccc(C)cc1)c1c(O)cc(C)oc1=O
MIC (DH5α): 70 µg/mL

CC[C@H]1OC(=O)[C@H](C)[C@@H](O[C@H]2C[C@@](C)(OC)[C@@H](O)[C@H](C)O2)[C@H](C)[C@@H](O[C@@H]2O[C@H](C)C[C@H](N(C)C)[C@H]2O)[C@](C)(O)C[C@@H](C)CN[C@H](C)[C@@H](O)[C@]1(C)O
MIC (ATCC 25922): 10 µM
